Measurements from different studies.
A part holds a random share of what one study measured. Changes are numbered by the printed parent chain.

Sample 1 — method: RNA Bind-n-Seq; form: RNA; medium: in vitro; tested at: 200 nM; notes: whole 134-nt RNA, ends assumed; with: 150 mM KCl; baseline: input library; reading: higher = stronger binding
Target: Ras GTPase-activating protein-binding protein 1, full length (G3BP1, Homo sapiens, UniProt Q13283)
UniProt Q13283, sequence (whole entry, looked up): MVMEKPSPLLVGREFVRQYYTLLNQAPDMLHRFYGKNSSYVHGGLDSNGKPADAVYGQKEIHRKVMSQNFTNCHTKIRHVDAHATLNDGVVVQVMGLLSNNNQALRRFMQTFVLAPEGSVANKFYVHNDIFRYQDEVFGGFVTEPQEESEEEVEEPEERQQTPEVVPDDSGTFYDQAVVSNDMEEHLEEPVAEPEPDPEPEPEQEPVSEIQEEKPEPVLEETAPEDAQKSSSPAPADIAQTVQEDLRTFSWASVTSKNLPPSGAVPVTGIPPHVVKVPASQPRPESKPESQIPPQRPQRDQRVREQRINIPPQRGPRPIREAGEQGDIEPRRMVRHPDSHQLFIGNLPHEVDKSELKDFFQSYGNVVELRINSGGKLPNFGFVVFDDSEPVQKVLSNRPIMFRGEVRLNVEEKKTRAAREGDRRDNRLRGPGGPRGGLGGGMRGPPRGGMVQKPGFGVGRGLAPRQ
For `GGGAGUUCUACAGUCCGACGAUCUGGGAGGUGGAUUUUGUUUAUUUUUUUAGCUCAUUUCCAUGGGUGGGAAUUUUUUUUUAAUAUGUGUCAUGAAUAAAGUUGUUUUUGAAAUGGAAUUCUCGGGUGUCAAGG`, the log2 enrichment was -0.362.
`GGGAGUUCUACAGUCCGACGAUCAGUGGGUUUGUUGAAGCAGUUGCUGGUGCAACAGCUAGGUUUGACUGAGAAGAGCGUUCAGGAAGACUGGCAACAUUUCCCAAGAUACAGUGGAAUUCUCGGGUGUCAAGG` has a log2 enrichment of -1.97.
The log2 enrichment of `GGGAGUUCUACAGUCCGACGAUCUCCUGUGCUACACAUCGUAUGUACCGAAUCGGGGAAAAAAGGAAAAAAGGAAAAAAGGGAAAGUAUUAUGUUACGCCGUUCGGAUCUGCAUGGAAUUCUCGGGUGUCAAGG` is reported as -0.309.
`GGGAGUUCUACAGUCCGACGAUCCCUGUGCUACACAUCGUAUGUACCGAAUCGGGCCCCCCCGGGGCCCCCCCGGCCCCCCCGGAAAGUAUUAUGUUACGCCGUUCGGAUCUGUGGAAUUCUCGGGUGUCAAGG` gave a log2 enrichment of -0.283.
`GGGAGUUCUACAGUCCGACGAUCUAACUUUAGAGGAGGAUCUGAUGGAUAUGGCAGUGGACGUGGAUUUGGGGAUGGCUAUAAUGGGUAUGGAGGAGUACCUGGAGGUGGCAAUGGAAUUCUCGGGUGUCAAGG` gave a log2 enrichment of 0.169.
For `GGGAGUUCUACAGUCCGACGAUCAGUCCUGUGCUACACAUCGUAUGUACCGAAUCGGGGCCCCGGGGCCCCGGGGCCCCGGAAAGUAUUAUGUUACGCCGUUCGGAUCUGCACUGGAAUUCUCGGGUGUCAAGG`, the log2 enrichment was 0.874.
`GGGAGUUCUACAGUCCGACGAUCUAACUUUAGAGGAGGAUCUGAUGGAUAUGGCAGUGGACGUGGAUUUGGGGAUGGCUAUAAUGGGUAUGAAGGAGGACCUGGAGGUGGCAAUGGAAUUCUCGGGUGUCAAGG` gave a log2 enrichment of 0.173.
`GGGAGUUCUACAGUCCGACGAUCUAACUUUAGAGGAGGAUCUGAUGGAUAUGGCAGUGGACGUGGAUUUGGGGAUGGCUAUAAUGGGUAUGGAGGAGGACCUGGAGGUGCCAAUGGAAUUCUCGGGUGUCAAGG` gave a log2 enrichment of 0.0813.

Sample 2 — method: RNA Bind-n-Seq; form: RNA; medium: in vitro; tested at: 20 nM; notes: 6-mer, flanks averaged, single round; with: 150 mM LiCl; baseline: input library; reading: higher = stronger binding
Target: TAR DNA-binding protein 43, full length, His tag (TARDBP, Homo sapiens, UniProt Q13148, residues 1-414)
For `UGGUAC`, “6-mer enrichment (R)” read 0.953.
`GGGAGC`: “6-mer enrichment (R)” 1.14.
Under “6-mer enrichment (R)”, `GCCCGC` is recorded as 1.
`CAUAGC`: “6-mer enrichment (R)” 0.85.
Under “6-mer enrichment (R)”, `GCCGCC` is recorded as 1.03.
`UUAGGC`: “6-mer enrichment (R)” 0.937.
Under “6-mer enrichment (R)”, `GUUAUA` is recorded as 1.03.
`CGUCGG`: “6-mer enrichment (R)” 1.11.

Sample 3 — method: competition protein-binding microarray; form: double-stranded DNA, one strand shown; medium: in vitro; tested at: 2 µM; with: Pho4 competitor, 0.05 µM; reading: higher = stronger binding
Target: Centromere-binding protein 1, full length, His-tagged (CBF1, Saccharomyces cerevisiae, UniProt P17106, residues 1-351)
UniProt P17106, sequence (whole entry, looked up): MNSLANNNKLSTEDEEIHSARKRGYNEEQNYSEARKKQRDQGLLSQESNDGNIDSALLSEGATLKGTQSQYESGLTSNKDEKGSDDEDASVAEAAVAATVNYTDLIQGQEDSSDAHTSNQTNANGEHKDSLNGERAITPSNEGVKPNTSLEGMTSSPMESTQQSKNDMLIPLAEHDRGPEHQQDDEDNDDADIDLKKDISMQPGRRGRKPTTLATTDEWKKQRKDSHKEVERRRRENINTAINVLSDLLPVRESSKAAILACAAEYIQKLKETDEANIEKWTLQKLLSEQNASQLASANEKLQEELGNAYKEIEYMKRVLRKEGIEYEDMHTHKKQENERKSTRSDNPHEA
Notes: whole 60-bp probe, lowest competitor level
`GGTAACGAGATGGATCTCGTGAAGGATGATATCAATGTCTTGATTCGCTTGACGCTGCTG` has a fluorescence intensity of 153 a.u.
The fluorescence intensity of `CTTTCCCGATCTTGGGGGGTGGGTGTAGCACATTTGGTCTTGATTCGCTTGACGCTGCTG` is reported as 89.4 a.u.
`CGCCGTCCTGTAATCCATGTGGCAAGTCCACCGTAAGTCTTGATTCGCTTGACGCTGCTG` has a fluorescence intensity of 56 a.u.
`GTTATTTAAAGCTTCCACGTGCAAAATTTTAGGCAAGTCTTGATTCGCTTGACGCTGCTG` has a fluorescence intensity of 1480 a.u.
The fluorescence intensity of `CGGGGTTAAGTTTTTCACGTGCGATGCTTGCAGCAGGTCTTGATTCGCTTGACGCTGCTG` is reported as 720 a.u.
For `ATGGCTATACCGAGTCACGTTTAGGTAATTTGTTTGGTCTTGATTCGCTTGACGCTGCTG`, the fluorescence intensity was 780 a.u.
With `CCAGTAACTTCGTTGACCGTGATGGTCCGTTCATTTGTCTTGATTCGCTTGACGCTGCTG` the fluorescence intensity was 70.7 a.u.
`CCGGAAGTGAAAGAAGACGTGATGGGCTATGCGCTAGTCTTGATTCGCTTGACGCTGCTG` gave a fluorescence intensity of 73.6 a.u.

Sample 4 — target: CCND1, cyclin fold, Cln2 fusion (human); method: yeast growth competition, sequencing; medium: yeast; notes: weak parent motif; baseline: not given; reading: higher = stronger binding; starting sequence: viral docking peptide; TSVRRALFTGGSD
`R4D` — result for “normalised enrichment score”: -0.033.
`F8W`: “normalised enrichment score” 0.302.
For `R5C`, “normalised enrichment score” read 0.19.
`S2I`: “normalised enrichment score” 0.0648.
`A6Y` — result for “normalised enrichment score”: -0.0982.
`V3G` — result for “normalised enrichment score”: -0.131.
`R5H` — result for “normalised enrichment score”: 0.287.
`L7S` — result for “normalised enrichment score”: -0.0155.
`G11C` — result for “normalised enrichment score”: 0.55.
For `T9Y`, “normalised enrichment score” read 0.706.
`R5E` — result for “normalised enrichment score”: 0.133.
Under “normalised enrichment score”, `V3F` is recorded as 0.153.
`T9N` — result for “normalised enrichment score”: 0.369.
`S2D` — result for “normalised enrichment score”: 0.264.
For `S12K`, “normalised enrichment score” read -0.225.
Under “normalised enrichment score”, `S12I` is recorded as 0.518.
`A6C` — result for “normalised enrichment score”: 0.581.
`S2L`: “normalised enrichment score” 0.541.
`R4T`: “normalised enrichment score” 0.386.
Under “normalised enrichment score”, `L7Y` is recorded as 0.389.
Under “normalised enrichment score”, `R5F` is recorded as 0.0332.
For `F8N`, “normalised enrichment score” read 0.0326.
For `S2Y`, “normalised enrichment score” read 0.594.
`F8L` — result for “normalised enrichment score”: 0.147.
`S2N`: “normalised enrichment score” 0.487.

Sample 5 — target: tungstate, free oxyanion; method: microfluidic competitive inhibition; medium: in vitro, cell-free expressed; tested at: not given; reading: lower = stronger binding
Notes: derived from inhibition constants, unchanged parent 2230 nM
Starting sequence: PafA, mature enzyme, eGFP fusion (Elizabethkingia meningoseptica, UniProt Q9KJX5); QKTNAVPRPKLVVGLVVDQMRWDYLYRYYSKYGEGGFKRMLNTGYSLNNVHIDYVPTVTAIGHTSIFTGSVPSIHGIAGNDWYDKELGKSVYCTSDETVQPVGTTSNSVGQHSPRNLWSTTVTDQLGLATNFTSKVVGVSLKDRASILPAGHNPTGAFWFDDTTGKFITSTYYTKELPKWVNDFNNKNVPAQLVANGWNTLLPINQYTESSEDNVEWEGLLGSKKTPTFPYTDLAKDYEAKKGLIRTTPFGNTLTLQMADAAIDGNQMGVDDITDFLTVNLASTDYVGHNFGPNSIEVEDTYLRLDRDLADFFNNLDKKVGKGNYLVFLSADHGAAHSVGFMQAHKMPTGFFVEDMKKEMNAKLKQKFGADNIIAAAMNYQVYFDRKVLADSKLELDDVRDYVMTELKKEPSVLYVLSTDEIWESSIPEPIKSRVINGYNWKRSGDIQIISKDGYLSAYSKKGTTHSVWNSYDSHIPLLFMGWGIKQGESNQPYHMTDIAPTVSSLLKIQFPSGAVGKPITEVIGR
Under “oxyanion analog dissociation constant”, `Q1G` is recorded as 2.39 µM.
`N48V`: “oxyanion analog dissociation constant” 4.9 µM.
Under “oxyanion analog dissociation constant”, `A157G` is recorded as 2.12 µM.

Other studies, line by line
Under “log2 fold change”, `CC(C)[C@]12O[C@H]1[C@@H]1O[C@]13[C@]1(O[C@H]1C[C@H]1C4=C(CC[C@@]13C)C(=O)OC4)[C@@H]2O` is recorded as -2.49 (Sarcocystis neurona; parasite growth; 10 µM, 96 h, second screen; baseline: untreated).

Some of these lines once more (sample 4):
`R5H` — result for “normalised enrichment score”: 0.287.
`F8L` — result for “normalised enrichment score”: 0.147.
`F8W`: “normalised enrichment score” 0.302.
`A6C` — result for “normalised enrichment score”: 0.581.
